Published values from different studies.
Parts stem from different laboratories: compare values within a part only. ± marks the error that the study gave.

Set 1 — cell line: HEK-293T-ACE2; tested at: concentration not given; relative to: vehicle
| SMILES | cell number [%] |
| --- | --- |
| Cc1ccc([C@@H]2O[C@H](CO)[C@@H](O)[C@H](O)[C@H]2O)cc1Cc1ccc(-c2ccc(F)cc2)s1 | 97.3 |
| Cc1[nH]c2ccccc2c1CCNCc1ccc(/C=C/C(=O)NO)cc1 | 36.5 |
| C[C@@H](O)[C@H]1C(=O)N2C(C(=O)O)=C(S[C@@H]3CN[C@H](CNS(N)(=O)=O)C3)[C@H](C)[C@H]12.O | 105 |
| O=C([O-])c1ccccc1[O-].[Bi+3].[OH-] | 100 |

Set 2 — observed: enzyme activity; action: inhibitor; tested at: 20 µM
Target: Replicase polyprotein 1ab, polymerase (rep, Severe acute respiratory syndrome coronavirus 2, UniProt P0DTD1)
| SMILES | inhibition |
| --- | --- |
| OC[C@H]1NCC[C@@H](O)[C@@H]1O | -6.04% |
| O=[N+]([O-])O[C@@H]1CO[C@H]2[C@@H]1OC[C@@H]2O | 6.74% |
| Cc1c(I)c(=O)n(-c2ccccc2)n1C | 3.25% |
| O=C1c2ccccc2-c2n[nH]c3cccc1c23 | 0.91% |
| Cc1cc(OCCCS(C)(=O)=O)cc(C)c1-c1cccc(COc2ccc3c(c2)OC[C@H]3CC(=O)O)c1 | -14.3% |
| c1ccc(Oc2nc(NC3CCCCC3)c3[nH]cnc3n2)cc1 | -0.1% |
| C#C[C@]1(OC(C)=O)CC[C@H]2[C@@H]3CCC4=C[C@@H](OC(C)=O)CC[C@@H]4[C@H]3CC[C@@]21C | -4.34% |
| CN(NC(=O)CC(=O)NN(C)C(=S)c1ccccc1)C(=S)c1ccccc1 | -1.38% |
| CN1CCc2c(c3ccccc3n2Cc2ccccc2)C1 | -0.94% |
| CC(C)COc1ccc(CNC(=O)N(Cc2ccc(F)cc2)C2CCN(C)CC2)cc1 | -2.89% |
| OCc1c[nH]c2ccccc12 | -0.39% |
| Cc1sc(C)c(C(=O)NC2(c3ccc(C(=O)O)cc3)CC2)c1Cc1ccc(C(F)(F)F)cc1 | -10.6% |
| CCOC(=O)[C@@H](N)CCC(=O)N[C@@H](CSCc1ccccc1)C(=O)N[C@@H](C(=O)OCC)c1ccccc1 | -0.84% |
| CCCCCCCCCCC(CO)CCCCCCCC (centres unmarked) | -1.81% |
| COc1cc(C#N)ccc1S(=O)(=O)Nc1ccc2c(c1)cc(C)c(=O)n2C | 3.64% |
| COc1cc2c(cc1OC)[C@H]1CC(=O)[C@H](CC(C)C)CN1CC2 | -0.78% |
| CN(C)Cc1ccc(S(=O)(=O)n2ccc(/C=C/C(=O)NO)c2)cc1 | 1.71% |
| CN(C)C(=O)c1cc2cnc(Nc3ccc(N4CCNCC4)cn3)nc2n1C1CCCC1 | -4.55% |
| CCOC(=O)[C@@](C)(N)Cc1ccc(O)c(O)c1 | 1.05% |
| Cc1cc(CN)cc(C)c1NC(=O)c1ccc(-c2cc(Cl)ccc2Cl)o1 | -1.74% |
| CCCCCCCCCCCCOCCOCCOCCOCCOCCOCCOCCOCCOCCO | 30.1% |
| CCOC(=O)NNc1nncc2ccccc12 | 15.3% |
| CC(=O)N[C@@H]1[C@@H](O)[C@H](O)[C@@H](CO)O[C@@H]1O | -1.81% |
| C[C@@H](CN1CCC(Cc2ccccc2)CC1)[C@@H](O)c1ccc(O)cc1 | -2.95% |
| CO[C@H]1O[C@@H]2O[C@@]3(C)CC[C@H]4[C@H](C)CC[C@@H]([C@H]1C)[C@@]24OO3 | 0.92% |

Mixed results
| SMILES | target or system | assay | test system | conditions | measurement | value |
| --- | --- | --- | --- | --- | --- | --- |
| Cc1ncsc1-c1ccc(CNC(=O)[C@@H]2C[C@@H](O)CN2C(=O)[C@@H](NC(=O)COCCOCCOCCNC(=O)C[C@@H]2N=C(c3ccc(Cl)cc3)c3c(sc(C)c3C)-n3c(C)nnc32)C(C)(C)C)cc1 | SARS-CoV-2 |  |  | concentration not given, Paris laboratory | viral replication inhibition | inactive |
| Cn1cnc(Cn2c(=O)[nH]/c(=N\c3cc4cn(C)nc4cc3Cl)n(Cc3cc(F)c(F)cc3F)c2=O)n1 |  |  | human, normal renal function | oral, 375 mg, vessel puncture site haemorrhage TEAE, Mild severity | patients with adverse event | 0% |
| Cc1cn([C@H]2C[C@H](O)[C@@H](COP(=O)(O)OP(=O)(O)OP(=O)(O)O)O2)c(=O)[nH]c1=O | Gag-Pol polyprotein, reverse transcriptase (gag-pol, Human immunodeficiency virus type 1 group M subtype B, UniProt P04585, K653A) | nucleotide misinsertion, steady-state kinetics |  | K66A mutant RT, with: opposite template T | Km | 604 ± 729 µM |
| CCN(CC)CCO[C@H]1CC[C@@]2(C)C(=CC[C@@H]3[C@@H]2CC[C@]2(C)C(=O)CC[C@@H]32)C1 | SARS-CoV-2 | viral replication, RT-qPCR | A549 expressing ACE2 |  | IC50 | 55 nM |
| CC(C)C[C@@H](C=O)NC(=O)[C@H](CC(C)C)NC(=O)[C@H](CC(C)C)NC(=O)OCc1ccccc1 | SARS-CoV-2 | cytopathic effect | Vero E6 |  | IC50 | 360 nM |
| C[C@H]1O[C@@H](O[C@H]2[C@@H](O)C[C@H](O[C@H]3[C@@H](O)C[C@H](O[C@H]4CC[C@@]5(C)[C@H](CC[C@@H]6[C@@H]5CC[C@]5(C)[C@@H](C7=CC(=O)OC7)CC[C@]65O)C4)O[C@@H]3C)O[C@@H]2C)C[C@H](O)[C@@H]1O | MDA-MB-231 | cell migration, scratch wound |  |  | IC50 | 46 nM |
| CN(C)CCOC(C)(c1ccccc1)c1ccccn1 (centres unmarked) | SARS-CoV-2 | viral replication | A549 expressing ACE2 | inactive set pIC50 4 | IC50 | > 10000 nM |
| COc1cccc(-c2ccccc2NC(=O)C2CCN(Cc3ccccc3F)CC2)c1 | SARS-CoV-2 | cytopathic effect | USA_WA1/2020 | retest, 8-point, duplicates | maximum response | 61.3% |
| Cn1c(C(=O)Nc2ccc(Cl)cc2)cc2c(=O)n3ccccc3nc21 | Severe acute respiratory syndrome coronavirus 2 | viral replication, inhibitor, qPCR | Vero C1008 |  | EC90 | 1740 nM |
| CC(C)(C)[C@H](NC(=O)C(F)(F)F)C(=O)N1C[C@H]2[C@@H]([C@H]1C(=O)N[C@H](C#N)C[C@@H]1CCNC1=O)C2(C)C | Norovirus | viral replication | HG23 replicon cells | 96 h | EC90 | > 10000 nM |
| COc1ccc2c(c1)[C@]13CCCC[C@@H]1[C@H](C2)N(C)CC3 | SARS-CoV-2 |  |  | concentration not given, Paris laboratory | viral replication inhibition | inactive |
| CCCOc1ccc(C(=O)CCN2CCCCC2)cc1 | SARS-CoV-2 | viral replication, high-content imaging screen |  | cell-based | EC50 | > 100000 nM |
| CN(C)CCNC(=O)c1ccc2c(c1)C1(CCN(CC3CC3)C1)CN2Cc1ccccc1 (centres unmarked) | SARS-CoV-2 | cytopathic effect | USA_WA1/2020 | retest, 8-point, duplicates | efficacy | 98% |
| CC[C@H](C)[C@H](NC(=O)[C@@H](NC(=O)[C@H](CC(=O)O)NC(=O)[C@H](CC(C)C)NC(=O)[C@H](CO)NC(=O)[C@@H](NC(=O)[C@H](C)N)[C@@H](C)O)C(C)C)C(=O)N[C@@H](CC(N)=O)C(=O)N[C@@H](Cc1ccc(O)cc1)C(=O)O | HLA class I histocompatibility antigen, A alpha chain, allele A*11:01 (Homo sapiens, UniProt P04439) | biochemical |  |  | IC50 | 6.8 nM |
| CC(C)C[C@H](NC(=O)[C@H](CO)NC(=O)[C@H](CC(C)C)NC(=O)[C@@H]1CCCN1C(=O)[C@H](CO)NC(=O)CNC(=O)[C@H](CC(C)C)NC(=O)[C@@H](N)CCCNC(=N)N)C(=O)O | HLA class I histocompatibility antigen, A alpha chain (Homo sapiens, UniProt P04439) | binding, competitor |  |  | IC50 | 7640 nM |
| N#Cc1ccc(N2N=C3c4ccccc4CCC3C2C2CCCC2)cc1Cl (centres unmarked) | Replicase polyprotein 1ab, methyltransferase (rep, Severe acute respiratory syndrome coronavirus 2, UniProt P0DTD1) | enzyme activity, inhibitor |  |  | IC50 | > 100000 nM |
| C=C1CC[C@@H]2[C@](C)(CO)[C@H](O)CC[C@@]2(C)[C@@H]1C/C=C1/C(=O)OC[C@H]1O | SARS-CoV-2 | viral replication, high-content imaging screen |  | cell-based | EC50 | > 100000 nM |
| Cn1c(C(=O)Nc2ccc3c(c2)OCCO3)cc2c(=O)n3ccccc3nc21 | Severe acute respiratory syndrome coronavirus 2 | viral replication, inhibitor, qPCR | Vero C1008 |  | EC90 | 8950 nM |
| CCC(CC)O[C@@H]1C=C(C(=O)O)C[C@H](N)[C@H]1NC(C)=O | neuraminidase (Influenza A virus, UniProt C6ELZ0) |  | human reference strains | mean | IC50 | 0.14 ± 0.01 nM |
| CCO[C@@H](Cc1ccc(OCCn2c(C)ccc2-c2ccc(SC)cc2)cc1)C(=O)O | Replicase polyprotein 1ab, main protease (rep, Severe acute respiratory syndrome coronavirus 2, UniProt P0DTD1) | enzyme activity, inhibitor |  | 20 µM, primary screen | inhibition | 29.4% |
| Cc1cc(/C=C/C#N)cc(C)c1-n1cnc2cnc(Nc3ccc(/C=C/C#N)cc3)nc21 | HIV-1 | viral replication, single-round infection | RT mutant D67E |  | EC50 | > 7 nM |

Repeated from above (mixed results):
| SMILES | target or system | assay | test system | conditions | measurement | value |
| --- | --- | --- | --- | --- | --- | --- |
| CCN(CC)CCO[C@H]1CC[C@@]2(C)C(=CC[C@@H]3[C@@H]2CC[C@]2(C)C(=O)CC[C@@H]32)C1 | SARS-CoV-2 | viral replication, RT-qPCR | A549 expressing ACE2 |  | IC50 | 55 nM |
| CC(C)C[C@@H](C=O)NC(=O)[C@H](CC(C)C)NC(=O)[C@H](CC(C)C)NC(=O)OCc1ccccc1 | SARS-CoV-2 | cytopathic effect | Vero E6 |  | IC50 | 360 nM |
| C[C@H]1O[C@@H](O[C@H]2[C@@H](O)C[C@H](O[C@H]3[C@@H](O)C[C@H](O[C@H]4CC[C@@]5(C)[C@H](CC[C@@H]6[C@@H]5CC[C@]5(C)[C@@H](C7=CC(=O)OC7)CC[C@]65O)C4)O[C@@H]3C)O[C@@H]2C)C[C@H](O)[C@@H]1O | MDA-MB-231 | cell migration, scratch wound |  |  | IC50 | 46 nM |
